Assay results of several laboratories.
A part holds a random share of what one study measured. Values joined by “and” are separate records of one study, mostly repeats; a detail may differ.
Chain of UniProt Q07912 (whole entry, looked up): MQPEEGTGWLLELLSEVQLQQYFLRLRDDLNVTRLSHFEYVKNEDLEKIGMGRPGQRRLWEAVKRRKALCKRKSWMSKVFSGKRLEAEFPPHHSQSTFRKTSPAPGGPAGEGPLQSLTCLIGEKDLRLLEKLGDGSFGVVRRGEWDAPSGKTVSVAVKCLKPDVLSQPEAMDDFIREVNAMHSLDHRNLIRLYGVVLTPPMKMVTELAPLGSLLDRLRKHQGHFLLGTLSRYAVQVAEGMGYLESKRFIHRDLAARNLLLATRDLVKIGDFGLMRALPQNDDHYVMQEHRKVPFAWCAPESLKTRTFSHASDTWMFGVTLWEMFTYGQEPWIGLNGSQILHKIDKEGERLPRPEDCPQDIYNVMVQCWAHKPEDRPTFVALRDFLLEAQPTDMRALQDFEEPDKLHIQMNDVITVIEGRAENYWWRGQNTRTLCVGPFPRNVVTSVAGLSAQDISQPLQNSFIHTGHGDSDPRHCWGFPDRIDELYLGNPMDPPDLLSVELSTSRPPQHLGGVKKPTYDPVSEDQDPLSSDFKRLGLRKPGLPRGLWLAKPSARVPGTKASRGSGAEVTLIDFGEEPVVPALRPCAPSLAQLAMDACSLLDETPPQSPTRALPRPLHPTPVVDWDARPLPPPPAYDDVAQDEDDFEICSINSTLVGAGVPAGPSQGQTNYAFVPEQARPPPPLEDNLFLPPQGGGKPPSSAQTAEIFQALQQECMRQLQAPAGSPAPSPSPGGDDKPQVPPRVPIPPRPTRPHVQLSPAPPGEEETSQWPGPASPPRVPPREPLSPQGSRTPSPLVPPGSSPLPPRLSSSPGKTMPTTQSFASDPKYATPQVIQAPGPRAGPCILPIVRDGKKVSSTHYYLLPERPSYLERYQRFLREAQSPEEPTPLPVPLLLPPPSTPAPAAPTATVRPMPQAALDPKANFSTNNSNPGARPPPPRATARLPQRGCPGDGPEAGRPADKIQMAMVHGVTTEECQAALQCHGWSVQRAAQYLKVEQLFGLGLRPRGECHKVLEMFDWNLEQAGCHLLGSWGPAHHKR
Chain of UniProt P21802 (whole entry, looked up): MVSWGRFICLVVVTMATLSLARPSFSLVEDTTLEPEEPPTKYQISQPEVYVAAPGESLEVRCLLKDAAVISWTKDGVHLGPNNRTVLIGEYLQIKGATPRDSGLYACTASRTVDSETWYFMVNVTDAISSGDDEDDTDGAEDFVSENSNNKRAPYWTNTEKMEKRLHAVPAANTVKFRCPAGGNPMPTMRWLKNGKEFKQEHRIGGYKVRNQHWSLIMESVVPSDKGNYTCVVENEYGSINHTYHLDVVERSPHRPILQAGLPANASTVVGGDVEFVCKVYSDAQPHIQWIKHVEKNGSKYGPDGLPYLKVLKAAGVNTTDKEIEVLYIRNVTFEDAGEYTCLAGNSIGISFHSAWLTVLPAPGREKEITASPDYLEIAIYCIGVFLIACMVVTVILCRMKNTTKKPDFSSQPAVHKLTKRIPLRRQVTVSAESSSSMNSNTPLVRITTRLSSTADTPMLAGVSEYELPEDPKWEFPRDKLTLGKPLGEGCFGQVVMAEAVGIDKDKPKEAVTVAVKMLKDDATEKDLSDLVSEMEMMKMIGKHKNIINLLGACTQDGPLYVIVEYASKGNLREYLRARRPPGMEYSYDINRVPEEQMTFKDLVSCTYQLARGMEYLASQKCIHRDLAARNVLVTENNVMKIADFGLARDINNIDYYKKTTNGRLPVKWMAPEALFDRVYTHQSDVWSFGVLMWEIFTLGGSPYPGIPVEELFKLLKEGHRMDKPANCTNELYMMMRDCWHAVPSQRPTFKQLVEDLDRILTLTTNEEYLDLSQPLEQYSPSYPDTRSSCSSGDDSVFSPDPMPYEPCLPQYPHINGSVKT
Chain of UniProt O94806 (whole entry, looked up): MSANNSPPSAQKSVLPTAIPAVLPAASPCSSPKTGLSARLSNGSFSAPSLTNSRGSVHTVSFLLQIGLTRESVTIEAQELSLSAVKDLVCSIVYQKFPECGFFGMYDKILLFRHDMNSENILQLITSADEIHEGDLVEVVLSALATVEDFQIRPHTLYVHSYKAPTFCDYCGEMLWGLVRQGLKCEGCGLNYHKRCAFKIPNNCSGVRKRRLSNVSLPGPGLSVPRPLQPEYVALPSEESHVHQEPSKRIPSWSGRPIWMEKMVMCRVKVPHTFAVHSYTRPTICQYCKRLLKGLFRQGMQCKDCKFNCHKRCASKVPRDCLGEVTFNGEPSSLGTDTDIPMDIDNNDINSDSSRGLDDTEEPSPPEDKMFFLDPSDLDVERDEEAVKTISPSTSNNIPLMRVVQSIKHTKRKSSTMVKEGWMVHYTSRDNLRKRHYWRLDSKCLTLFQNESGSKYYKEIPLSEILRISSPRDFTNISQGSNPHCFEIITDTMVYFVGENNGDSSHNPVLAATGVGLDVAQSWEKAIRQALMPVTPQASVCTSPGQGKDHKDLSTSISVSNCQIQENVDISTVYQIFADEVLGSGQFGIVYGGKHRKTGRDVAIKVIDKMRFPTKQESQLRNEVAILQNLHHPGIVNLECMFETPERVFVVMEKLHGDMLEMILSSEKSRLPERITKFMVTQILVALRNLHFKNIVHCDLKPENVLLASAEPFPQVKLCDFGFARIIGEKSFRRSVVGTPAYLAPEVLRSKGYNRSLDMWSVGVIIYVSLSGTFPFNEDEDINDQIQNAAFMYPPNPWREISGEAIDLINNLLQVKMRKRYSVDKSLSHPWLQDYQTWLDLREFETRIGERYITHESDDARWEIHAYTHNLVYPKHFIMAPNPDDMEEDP
Chain of UniProt P10721 (whole entry, unmodified, looked up): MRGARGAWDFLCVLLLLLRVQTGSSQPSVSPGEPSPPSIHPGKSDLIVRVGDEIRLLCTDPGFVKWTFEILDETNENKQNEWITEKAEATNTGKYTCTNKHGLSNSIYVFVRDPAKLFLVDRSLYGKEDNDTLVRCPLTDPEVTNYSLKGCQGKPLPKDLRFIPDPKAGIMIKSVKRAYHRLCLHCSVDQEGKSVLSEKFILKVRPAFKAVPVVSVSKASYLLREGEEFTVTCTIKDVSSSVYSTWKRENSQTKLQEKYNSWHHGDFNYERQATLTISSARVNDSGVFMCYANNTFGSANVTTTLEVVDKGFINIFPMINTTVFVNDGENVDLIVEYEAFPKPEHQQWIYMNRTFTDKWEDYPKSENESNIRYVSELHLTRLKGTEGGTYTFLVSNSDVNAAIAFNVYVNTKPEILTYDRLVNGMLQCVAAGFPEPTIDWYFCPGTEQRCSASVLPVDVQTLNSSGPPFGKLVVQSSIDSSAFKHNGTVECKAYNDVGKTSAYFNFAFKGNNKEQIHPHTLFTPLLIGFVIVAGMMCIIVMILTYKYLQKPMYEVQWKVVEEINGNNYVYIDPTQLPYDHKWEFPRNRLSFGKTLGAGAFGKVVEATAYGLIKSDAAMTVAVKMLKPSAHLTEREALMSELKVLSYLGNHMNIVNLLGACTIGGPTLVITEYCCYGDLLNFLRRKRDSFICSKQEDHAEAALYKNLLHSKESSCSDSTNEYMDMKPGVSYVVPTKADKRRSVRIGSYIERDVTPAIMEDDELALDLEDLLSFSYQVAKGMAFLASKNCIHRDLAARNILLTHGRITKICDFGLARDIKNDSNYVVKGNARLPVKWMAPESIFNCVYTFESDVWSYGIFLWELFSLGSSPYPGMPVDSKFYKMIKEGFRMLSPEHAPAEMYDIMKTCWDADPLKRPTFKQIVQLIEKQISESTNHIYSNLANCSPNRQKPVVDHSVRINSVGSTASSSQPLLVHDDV
Chain of UniProt O76039 (whole entry, looked up): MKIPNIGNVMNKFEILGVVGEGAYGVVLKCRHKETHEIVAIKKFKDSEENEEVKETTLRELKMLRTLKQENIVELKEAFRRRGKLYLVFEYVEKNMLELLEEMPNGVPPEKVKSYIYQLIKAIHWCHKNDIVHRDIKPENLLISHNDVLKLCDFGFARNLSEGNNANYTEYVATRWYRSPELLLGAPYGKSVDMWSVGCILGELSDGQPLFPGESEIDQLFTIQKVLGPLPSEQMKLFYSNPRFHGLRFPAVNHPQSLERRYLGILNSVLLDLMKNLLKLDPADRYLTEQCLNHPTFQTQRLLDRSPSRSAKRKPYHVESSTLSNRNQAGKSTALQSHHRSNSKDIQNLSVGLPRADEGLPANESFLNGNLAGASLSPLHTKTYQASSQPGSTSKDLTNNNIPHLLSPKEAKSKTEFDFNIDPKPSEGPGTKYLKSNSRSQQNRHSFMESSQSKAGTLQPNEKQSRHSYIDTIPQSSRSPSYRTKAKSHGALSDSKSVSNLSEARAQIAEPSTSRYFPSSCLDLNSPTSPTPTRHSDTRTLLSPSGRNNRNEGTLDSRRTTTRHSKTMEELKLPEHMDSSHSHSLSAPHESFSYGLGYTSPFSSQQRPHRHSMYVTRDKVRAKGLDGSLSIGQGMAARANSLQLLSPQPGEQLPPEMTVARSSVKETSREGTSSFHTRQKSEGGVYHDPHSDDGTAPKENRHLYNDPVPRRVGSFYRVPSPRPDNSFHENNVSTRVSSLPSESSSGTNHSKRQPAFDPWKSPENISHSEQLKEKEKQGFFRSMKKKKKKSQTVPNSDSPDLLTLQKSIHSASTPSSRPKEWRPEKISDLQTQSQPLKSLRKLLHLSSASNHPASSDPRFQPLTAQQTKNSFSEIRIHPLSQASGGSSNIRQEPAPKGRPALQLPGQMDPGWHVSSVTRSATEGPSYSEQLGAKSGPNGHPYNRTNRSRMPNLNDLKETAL

Series 1 — species: human; medium: microsomes or S9; concentration: 2 µM; time: 0.5 h
SMILES | remaining compound
Clc1ccc(OCc2nnc(-c3cccnc3)[nH]2)cc1 | 76.6%
CC(Sc1nnnn1C(C)C)C(=O)C12CC3CC(CC(C3)C1)C2 (centres unmarked) | > 99%
c1ccc(Nc2ccc(Oc3ncnc4sccc34)cc2)cc1 | 98.7%
CN(C)c1noc(C2CCCN(c3nccnc3C#N)C2)n1 (centres unmarked) | 46.8%
c1cc2c(cn1)cnn2Cc1nnc2ccc(-n3ncc4cnccc43)nn12 | 43.7%
CCC(=O)N(CCC1(c2ccc(C)cc2)CCOC(C)(C)C1)Cc1ccccc1 (centres unmarked) | 55.4%
C1CN(c2nc(N3CCOCC3)c3nn[nH]c3n2)CCO1 | 73.4%
COc1cccc(-c2csc(C3(c4ccc(OC)c(C)c4)N=C(N)N(C)C3=O)n2)c1 (centres unmarked) | 41.6%
Cc1ccnn1CCNC(=O)CCc1nc2ncc(Br)cc2[nH]1 | 71.8%

Series 2 — technique: competition with immobilised ligand; concentration: 0.1 µM
SMILES: Cn1cc(Cl)c2c(Oc3c(F)cc(Nc4cc(Cl)nc(N)n4)cc3F)ccnc21
target | observed | remaining binding [%]
Phosphatidylinositol 4,5-bisphosphate 3-kinase catalytic subunit alpha isoform (PIK3CA, Homo sapiens, UniProt P42336, E542K) | cell-free assay | 89
Epithelial discoidin domain-containing receptor 1 (DDR1, Homo sapiens, UniProt Q08345) | cell-free assay | 100
Insulin-like growth factor 1 receptor (IGF1R, Homo sapiens, UniProt P08069) | cell-free assay | 97
Serine/threonine-protein kinase BRSK1 (BRSK1, Homo sapiens, UniProt Q8TDC3) | cell-free assay | 100
Activated CDC42 kinase 1 (TNK2, Homo sapiens, UniProt Q07912) | cell-free assay | 85
Inhibitor of nuclear factor kappa-B kinase subunit beta (IKBKB, Homo sapiens, UniProt O14920) | cell-free assay | 87
Receptor-type tyrosine-protein kinase FLT3 (FLT3, Homo sapiens, UniProt P36888, K663Q) | cell-free assay | 100
Serine/threonine-protein kinase D3 (PRKD3, Homo sapiens, UniProt O94806) | cell-free assay | 100
Muscle, skeletal receptor tyrosine-protein kinase (MUSK, Homo sapiens, UniProt O15146) | cell-free assay | 100
Mast/stem cell growth factor receptor Kit (KIT, Homo sapiens, UniProt P10721, D816V) | cell-free assay | 97
Tyrosine-protein kinase Blk (BLK, Homo sapiens, UniProt P51451) | cell-free assay | 96
Macrophage colony-stimulating factor 1 receptor, autoinhibited (CSF1R, Homo sapiens, UniProt P07333) | cell-free assay | 89
Fibroblast growth factor receptor 2 (FGFR2, Homo sapiens, UniProt P21802) | cell-free assay | 98
Cyclin-dependent kinase-like 5 (CDKL5, Homo sapiens, UniProt O76039) | cell-free assay | 78
Serine/threonine-protein kinase N1 (PKN1, Homo sapiens, UniProt Q16512) | cell-free assay | 100
Tyrosine-protein kinase TXK (TXK, Homo sapiens, UniProt P42681) | binding | 100
Dual specificity protein kinase CLK3 (CLK3, Homo sapiens, UniProt P49761) | cell-free assay | 91
Mast/stem cell growth factor receptor Kit (KIT, Homo sapiens, UniProt P10721, D816H) | cell-free assay | 79
Serine/threonine-protein kinase N2 (PKN2, Homo sapiens, UniProt Q16513) | cell-free assay | 75
Tyrosine-protein kinase Mer (MERTK, Homo sapiens, UniProt Q12866) | cell-free assay | 90
Serine/threonine-protein kinase SIK2 (SIK2, Homo sapiens, UniProt Q9H0K1) | cell-free assay | 100
Death-associated protein kinase 1 (DAPK1, Homo sapiens, UniProt P53355) | cell-free assay | 100
Insulin receptor (INSR, Homo sapiens, UniProt P06213) | cell-free assay | 90
Ribosomal protein S6 kinase alpha-4, C-terminal kinase domain (RPS6KA4, Homo sapiens, UniProt O75676) | cell-free assay | 100
Serine/threonine-protein kinase WNK4 (WNK4, Homo sapiens, UniProt Q96J92) | cell-free assay | 100

Series 3 — Structure (SMILES): COc1ccc(-c2cnc3c(-c4ccsc4)cnn3c2)cc1; observed: enzyme activity; action: inhibitor; concentration: 0.5 µM; baseline: control
target | remaining activity [%]
Serine/threonine-protein kinase PLK1 (PLK1, Homo sapiens, UniProt P53350) | 101
BDNF/NT-3 growth factors receptor (NTRK2, Homo sapiens, UniProt Q16620) | 82.9
Serine/threonine-protein kinase TAO1 (TAOK1, Homo sapiens, UniProt Q7L7X3) | 105
Fibroblast growth factor receptor 2 (FGFR2, Homo sapiens, UniProt P21802) | 92.4
Dual serine/threonine and tyrosine protein kinase (DSTYK, Homo sapiens, UniProt Q6XUX3) | 97.6
Activin receptor type-1 (ACVR1, Homo sapiens, UniProt Q04771) | 91.1
Serine/threonine-protein kinase Sgk3 (SGK3, Homo sapiens, UniProt Q96BR1) | 99.6
RAF proto-oncogene serine/threonine-protein kinase (RAF1, Homo sapiens, UniProt P04049) | 95.5
Serine/threonine-protein kinase ULK1 (ULK1, Homo sapiens, UniProt O75385) | 79
Mitogen-activated protein kinase kinase kinase 9 (MAP3K9, Homo sapiens, UniProt P80192) | 65.6
Serine/threonine-protein kinase D3 (PRKD3, Homo sapiens, UniProt O94806) | 100
Activated CDC42 kinase 1 (TNK2, Homo sapiens, UniProt Q07912) | 92.2
Dual specificity tyrosine-phosphorylation-regulated kinase 2 (DYRK2, Homo sapiens, UniProt Q92630) | 71.1
Tyrosine-protein kinase HCK (HCK, Homo sapiens, UniProt P08631) | 81.9
Insulin receptor-related protein (INSRR, Homo sapiens, UniProt P14616) | 98.7
Receptor-interacting serine/threonine-protein kinase 2 (RIPK2, Homo sapiens, UniProt O43353) | 56.8

Series 4 — cell line: mouse MPNST tumor cells; technique: high-content immunofluorescence imaging; item: nuclear SOX9; concentration: 10 µM; time: 12 h; notes: mean of 2 replicates; baseline: DMSO control; direction: higher = more nuclear SOX9
Structure (SMILES) | nuclear SOX9 intensity
CO[C@H]1C[C@H](O[C@H]2[C@H](C)[C@@H](O[C@@H]3O[C@H](C)C[C@H](N(C)C)[C@H]3OC(C)=O)[C@@H](C)C[C@@]3(CO3)C(=O)[C@H](C)[C@@H](OC(C)=O)[C@@H](C)[C@@H](C)OC(=O)[C@@H]2C)O[C@@H](C)[C@@H]1OC(C)=O | 107 % of DMSO
Cc1cnc(C(=O)NCCc2ccc(S(=O)(=O)NC(=O)NC3CCCCC3)cc2)cn1 | 93.9 % of DMSO
CCCCc1oc2ccccc2c1C(=O)c1cc(I)c(OCCN(CC)CC)c(I)c1 | 149 % of DMSO
CCCN(CCC)S(=O)(=O)c1ccc(C(=O)O)cc1 | 86 % of DMSO and 91.7 % of DMSO and 101 % of DMSO
CC/C(=C(/CC)c1ccc(O)cc1)c1ccc(O)cc1 | 124 % of DMSO
O=c1cc(N2CCNCC2)oc2c(-c3ccccc3)cccc12 | 115 % of DMSO
Clc1ccc2nsnc2c1NC1=NCCN1 | 108 % of DMSO and 106 % of DMSO
Cc1ccc(-c2cn3c4c(sc3n2)CCCC4)cc1 | 74 % of DMSO
COc1ccc(CCNCc2ccc(OCc3ccc(Cl)nc3)c(OC)c2)cc1OC | 132 % of DMSO
CCOC(=O)C(C)(C)Oc1ccc(Cl)cc1 | 95 % of DMSO and 93 % of DMSO
Nc1ccn([C@H]2CC[C@@H](CO)O2)c(=O)n1 | 106 % of DMSO and 113 % of DMSO
CO[C@@]1(NC(=O)C2SC(=C(C(N)=O)C(=O)O)S2)C(=O)N2C(C(=O)O)=C(CSc3nnnn3C)CS[C@@H]21 (some centres unmarked) | 130 % of DMSO
